{"data": "Assay results of several laboratories", "note": "Every numbered part comes from another study and shows a few of its results, in no order."}
{"data": "Study 1", "target": "Sal-like protein 4, full length isoform A (SALL4, Homo sapiens, UniProt Q9UJQ4, residues 1-1053)", "method": "universal PBM", "form": "double-stranded DNA, one strand shown", "matrix": "in vitro", "concentration": "600 nM", "notes": "8-mer, flanks averaged, mean of replicates", "direction": "higher = stronger binding", "chain of UniProt Q9UJQ4 (whole entry, looked up)": "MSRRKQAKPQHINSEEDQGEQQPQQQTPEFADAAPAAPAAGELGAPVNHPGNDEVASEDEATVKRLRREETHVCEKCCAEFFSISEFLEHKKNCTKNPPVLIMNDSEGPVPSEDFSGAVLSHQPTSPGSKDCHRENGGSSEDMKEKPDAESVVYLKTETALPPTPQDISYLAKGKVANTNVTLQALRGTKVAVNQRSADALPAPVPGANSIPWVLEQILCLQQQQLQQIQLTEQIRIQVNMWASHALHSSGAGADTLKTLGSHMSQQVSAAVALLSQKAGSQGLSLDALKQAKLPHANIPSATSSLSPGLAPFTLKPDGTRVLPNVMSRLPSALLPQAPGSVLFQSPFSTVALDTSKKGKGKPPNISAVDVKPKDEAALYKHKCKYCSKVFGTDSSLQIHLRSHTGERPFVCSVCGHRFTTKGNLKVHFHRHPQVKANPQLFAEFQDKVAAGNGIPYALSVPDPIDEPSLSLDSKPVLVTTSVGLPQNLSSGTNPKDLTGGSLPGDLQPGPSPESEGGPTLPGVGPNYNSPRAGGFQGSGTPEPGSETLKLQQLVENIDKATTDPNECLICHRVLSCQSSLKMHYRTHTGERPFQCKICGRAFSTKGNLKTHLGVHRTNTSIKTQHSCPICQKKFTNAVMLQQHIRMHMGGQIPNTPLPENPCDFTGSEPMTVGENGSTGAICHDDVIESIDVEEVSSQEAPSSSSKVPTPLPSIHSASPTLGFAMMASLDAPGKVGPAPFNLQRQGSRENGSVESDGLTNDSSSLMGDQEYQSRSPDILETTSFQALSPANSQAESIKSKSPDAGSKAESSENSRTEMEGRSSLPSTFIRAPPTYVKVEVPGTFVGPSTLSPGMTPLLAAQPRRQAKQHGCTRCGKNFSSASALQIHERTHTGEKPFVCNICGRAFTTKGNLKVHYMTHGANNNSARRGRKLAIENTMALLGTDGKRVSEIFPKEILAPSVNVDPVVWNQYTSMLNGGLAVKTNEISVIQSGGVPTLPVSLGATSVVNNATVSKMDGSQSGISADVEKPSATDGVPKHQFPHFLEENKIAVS"}
{"Sequence": "GCCGACTA", "E-score": -0.139}
{"Sequence": "AACTTTCC", "E-score": -0.0613}
{"Sequence": "CTAACCAG", "E-score": -0.113}
{"Sequence": "CAGATGCC", "E-score": -0.233}
{"Sequence": "TCTTATAA", "E-score": 0.287}
{"Sequence": "AAGCTGGT", "E-score": -0.0583}
{"data": "Study 2", "target": "Interferon regulatory factor 5, full length, phosphomimetic (IRF5, Homo sapiens, UniProt Q13568-2, residues 1-514, K96S/S451D/S453D/S456D/S462D)", "method": "protein-binding microarray", "form": "double-stranded DNA, one strand shown", "matrix": "in vitro", "concentration": "250 nM", "notes": "60-bp whole probe", "with": "salmon DNA 0.4 mg/ml", "baseline": "random background probes", "direction": "higher = stronger binding"}
{"Sequence": "GCCTAGCACTTAGATCTCAGACTGCATTAGTGCTAGGTCTTGATTCGCTTGACGCTGCTG", "log fluorescence [z-score]": -0.0897}
{"Sequence": "GCCTAGCACATAGATATCGGGTTTCGATTAGTGCTAGTCTTGATTCGCTTGACGCTGCTG", "log fluorescence [z-score]": 7.86}
{"Sequence": "GCCTAGCACGACGGTAGCGGTCTCGGGACGTGCTAGGTCTTGATTCGCTTGACGCTGCTG", "log fluorescence [z-score]": -0.406}
{"Sequence": "GCCTAGCACTCACCCCTAGGGGGCAGTATGTGCTAGGTCTTGATTCGCTTGACGCTGCTG", "log fluorescence [z-score]": 0.286}
{"data": "Study 3", "target": "Histone acetyltransferase KAT6A, winged helix 2, GST fusion (KAT6A, Homo sapiens, UniProt Q92794, residues 85-181)", "method": "protein binding microarray", "form": "double-stranded DNA, one strand shown", "matrix": "in vitro", "concentration": "not given", "notes": "8-mer, flanks averaged, mean of 2 arrays, mostly near background", "baseline": "not given", "direction": "higher = stronger binding", "Residues (chain)": "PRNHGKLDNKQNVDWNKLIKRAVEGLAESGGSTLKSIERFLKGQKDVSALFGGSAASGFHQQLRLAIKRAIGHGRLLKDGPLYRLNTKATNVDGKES"}
{"Sequence": "AGAGAATC", "E-score": 0.0713}
{"Sequence": "CTCATACA", "E-score": -0.18}
{"Sequence": "ACTCCATG", "E-score": -0.223}
{"Sequence": "GTAACACA", "E-score": -0.155}
{"data": "Further values, each from its own experiment"}
{"Substance": "PhoQ, residues 284 288 289 292 302 303 TNSAEL", "target": "PhoP, residues 12 14 15 18 19 LHTVM (Escherichia coli, UniProt P23836)", "test": "Sort-seq, measured: YFP reporter", "test system": "E. coli", "setting": "PhoQ-PhoP variant library, with: 10 µM Mg2+", "how to read": "baseline: high Mg2+ state, higher = stronger signaling", "endpoint": "fold induction", "result": 1.48}
